Measured values pooled from the literature.
Protocols differ between the studies behind these lines. Several values in a cell are separate wells, animals, samples, runs or records. Numbers after ± are the reported error.
RIPK1: Receptor-interacting serine/threonine-protein kinase 1 (RIPK1, Homo sapiens, UniProt Q13546)
Chain of UniProt Q13546 (whole entry, looked up): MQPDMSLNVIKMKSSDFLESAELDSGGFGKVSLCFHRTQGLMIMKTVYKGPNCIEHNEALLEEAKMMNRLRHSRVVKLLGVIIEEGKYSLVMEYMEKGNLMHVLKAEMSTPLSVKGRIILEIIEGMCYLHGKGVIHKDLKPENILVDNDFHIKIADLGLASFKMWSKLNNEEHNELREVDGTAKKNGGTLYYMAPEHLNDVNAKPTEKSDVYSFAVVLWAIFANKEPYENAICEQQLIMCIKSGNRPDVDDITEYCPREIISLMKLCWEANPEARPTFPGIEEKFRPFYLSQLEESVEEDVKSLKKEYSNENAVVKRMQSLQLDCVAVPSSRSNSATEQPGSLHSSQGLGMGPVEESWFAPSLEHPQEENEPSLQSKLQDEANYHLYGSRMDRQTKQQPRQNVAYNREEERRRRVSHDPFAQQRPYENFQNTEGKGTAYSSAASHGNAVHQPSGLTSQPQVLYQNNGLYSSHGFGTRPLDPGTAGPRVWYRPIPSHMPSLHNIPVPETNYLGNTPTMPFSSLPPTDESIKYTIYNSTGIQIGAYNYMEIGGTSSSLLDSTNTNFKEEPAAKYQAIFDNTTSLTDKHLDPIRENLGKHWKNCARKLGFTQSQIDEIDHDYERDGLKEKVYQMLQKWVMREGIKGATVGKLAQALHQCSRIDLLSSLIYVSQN
ABO G235S/G268A/L266M/R176G: Histo-blood group ABO system transferase (ABO, Homo sapiens, UniProt P16442, G235S/G268A/L266M/R176G)
Chain of UniProt P16442 (whole entry, unmodified, looked up): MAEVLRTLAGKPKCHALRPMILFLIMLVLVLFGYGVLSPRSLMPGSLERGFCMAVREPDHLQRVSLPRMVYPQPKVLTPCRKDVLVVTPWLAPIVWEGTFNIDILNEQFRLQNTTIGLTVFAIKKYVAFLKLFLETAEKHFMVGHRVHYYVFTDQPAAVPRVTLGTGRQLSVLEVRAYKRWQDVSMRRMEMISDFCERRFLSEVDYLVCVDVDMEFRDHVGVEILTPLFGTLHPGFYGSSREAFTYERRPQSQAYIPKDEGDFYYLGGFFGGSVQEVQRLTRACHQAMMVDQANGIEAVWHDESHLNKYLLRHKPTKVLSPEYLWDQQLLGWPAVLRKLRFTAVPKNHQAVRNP
ADORA1: Adenosine receptor A1 (ADORA1, Homo sapiens, UniProt P30542)
Chain of UniProt P30542 (whole entry, looked up): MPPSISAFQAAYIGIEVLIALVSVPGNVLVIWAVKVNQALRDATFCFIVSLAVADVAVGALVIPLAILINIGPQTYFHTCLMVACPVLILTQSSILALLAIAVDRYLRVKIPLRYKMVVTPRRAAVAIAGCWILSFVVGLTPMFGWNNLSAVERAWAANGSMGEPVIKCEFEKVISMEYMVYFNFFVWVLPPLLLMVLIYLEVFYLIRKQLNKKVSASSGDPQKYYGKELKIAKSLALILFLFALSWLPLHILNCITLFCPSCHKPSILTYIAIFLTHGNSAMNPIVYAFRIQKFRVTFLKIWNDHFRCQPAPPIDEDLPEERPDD
Chain of UniProt P07814 (whole entry, looked up): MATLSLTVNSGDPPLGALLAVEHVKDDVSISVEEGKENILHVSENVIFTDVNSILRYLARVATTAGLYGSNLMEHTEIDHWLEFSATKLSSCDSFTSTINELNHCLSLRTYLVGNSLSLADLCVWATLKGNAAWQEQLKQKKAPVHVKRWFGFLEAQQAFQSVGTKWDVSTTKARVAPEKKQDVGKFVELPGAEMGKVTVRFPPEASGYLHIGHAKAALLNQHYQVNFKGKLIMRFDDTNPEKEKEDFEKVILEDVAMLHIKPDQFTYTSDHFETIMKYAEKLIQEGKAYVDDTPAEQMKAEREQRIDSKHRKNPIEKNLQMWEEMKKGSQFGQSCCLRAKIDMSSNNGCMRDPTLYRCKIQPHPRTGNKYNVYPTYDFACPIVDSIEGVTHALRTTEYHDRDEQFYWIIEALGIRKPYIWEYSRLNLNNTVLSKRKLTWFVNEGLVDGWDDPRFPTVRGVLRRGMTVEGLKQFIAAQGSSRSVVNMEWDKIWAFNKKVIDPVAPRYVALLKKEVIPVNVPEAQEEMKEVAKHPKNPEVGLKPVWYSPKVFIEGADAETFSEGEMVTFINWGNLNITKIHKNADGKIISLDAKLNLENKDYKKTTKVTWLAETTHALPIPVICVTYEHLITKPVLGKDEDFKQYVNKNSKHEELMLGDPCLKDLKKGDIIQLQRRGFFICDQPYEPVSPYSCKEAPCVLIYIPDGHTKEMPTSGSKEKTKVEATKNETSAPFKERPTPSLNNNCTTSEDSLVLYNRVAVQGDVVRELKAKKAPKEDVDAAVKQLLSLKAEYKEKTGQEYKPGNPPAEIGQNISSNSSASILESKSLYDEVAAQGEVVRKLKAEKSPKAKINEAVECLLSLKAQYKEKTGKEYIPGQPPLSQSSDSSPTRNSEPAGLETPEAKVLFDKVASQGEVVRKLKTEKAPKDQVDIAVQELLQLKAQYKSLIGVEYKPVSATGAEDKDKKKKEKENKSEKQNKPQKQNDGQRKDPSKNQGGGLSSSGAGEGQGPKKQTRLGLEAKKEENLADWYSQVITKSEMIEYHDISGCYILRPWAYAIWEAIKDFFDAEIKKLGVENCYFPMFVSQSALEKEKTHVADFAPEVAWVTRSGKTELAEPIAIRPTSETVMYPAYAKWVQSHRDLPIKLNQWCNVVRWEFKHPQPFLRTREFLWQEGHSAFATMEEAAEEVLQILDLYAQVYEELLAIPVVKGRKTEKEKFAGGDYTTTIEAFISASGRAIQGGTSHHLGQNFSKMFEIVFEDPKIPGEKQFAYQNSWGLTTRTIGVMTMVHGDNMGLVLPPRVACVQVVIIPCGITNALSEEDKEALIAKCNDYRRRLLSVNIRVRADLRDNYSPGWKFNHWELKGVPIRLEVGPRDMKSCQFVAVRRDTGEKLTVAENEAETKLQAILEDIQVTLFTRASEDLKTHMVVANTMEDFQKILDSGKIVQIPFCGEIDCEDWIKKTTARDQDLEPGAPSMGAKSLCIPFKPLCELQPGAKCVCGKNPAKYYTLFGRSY
Chain of UniProt Q9NZQ7 (whole entry, looked up): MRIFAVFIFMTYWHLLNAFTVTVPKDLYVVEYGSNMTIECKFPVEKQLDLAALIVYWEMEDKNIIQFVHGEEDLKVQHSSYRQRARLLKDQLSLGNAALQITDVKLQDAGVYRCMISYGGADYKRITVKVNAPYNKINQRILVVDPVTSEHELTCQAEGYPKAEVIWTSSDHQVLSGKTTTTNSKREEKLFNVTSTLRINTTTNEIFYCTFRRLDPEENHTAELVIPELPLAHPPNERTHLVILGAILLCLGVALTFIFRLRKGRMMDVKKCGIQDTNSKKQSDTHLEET
Chain of UniProt P0DMV8 (whole entry, looked up): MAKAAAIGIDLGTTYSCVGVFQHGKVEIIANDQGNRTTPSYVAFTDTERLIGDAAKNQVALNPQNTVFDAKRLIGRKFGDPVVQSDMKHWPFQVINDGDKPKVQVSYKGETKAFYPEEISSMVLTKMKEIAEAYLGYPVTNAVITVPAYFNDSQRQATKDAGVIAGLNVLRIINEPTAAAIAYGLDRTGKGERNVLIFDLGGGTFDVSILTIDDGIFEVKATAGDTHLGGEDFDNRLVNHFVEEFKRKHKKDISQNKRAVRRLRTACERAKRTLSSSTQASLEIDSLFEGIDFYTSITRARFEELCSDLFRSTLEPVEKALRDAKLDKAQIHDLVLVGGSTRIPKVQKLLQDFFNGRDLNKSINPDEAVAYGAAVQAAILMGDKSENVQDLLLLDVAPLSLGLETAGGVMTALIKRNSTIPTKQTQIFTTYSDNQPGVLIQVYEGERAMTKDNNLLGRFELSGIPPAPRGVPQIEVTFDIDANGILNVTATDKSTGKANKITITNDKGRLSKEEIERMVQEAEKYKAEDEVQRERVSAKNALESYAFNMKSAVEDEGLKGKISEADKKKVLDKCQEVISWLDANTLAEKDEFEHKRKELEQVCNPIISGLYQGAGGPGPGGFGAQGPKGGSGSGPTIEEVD
Chain of UniProt Q99835 (whole entry, looked up): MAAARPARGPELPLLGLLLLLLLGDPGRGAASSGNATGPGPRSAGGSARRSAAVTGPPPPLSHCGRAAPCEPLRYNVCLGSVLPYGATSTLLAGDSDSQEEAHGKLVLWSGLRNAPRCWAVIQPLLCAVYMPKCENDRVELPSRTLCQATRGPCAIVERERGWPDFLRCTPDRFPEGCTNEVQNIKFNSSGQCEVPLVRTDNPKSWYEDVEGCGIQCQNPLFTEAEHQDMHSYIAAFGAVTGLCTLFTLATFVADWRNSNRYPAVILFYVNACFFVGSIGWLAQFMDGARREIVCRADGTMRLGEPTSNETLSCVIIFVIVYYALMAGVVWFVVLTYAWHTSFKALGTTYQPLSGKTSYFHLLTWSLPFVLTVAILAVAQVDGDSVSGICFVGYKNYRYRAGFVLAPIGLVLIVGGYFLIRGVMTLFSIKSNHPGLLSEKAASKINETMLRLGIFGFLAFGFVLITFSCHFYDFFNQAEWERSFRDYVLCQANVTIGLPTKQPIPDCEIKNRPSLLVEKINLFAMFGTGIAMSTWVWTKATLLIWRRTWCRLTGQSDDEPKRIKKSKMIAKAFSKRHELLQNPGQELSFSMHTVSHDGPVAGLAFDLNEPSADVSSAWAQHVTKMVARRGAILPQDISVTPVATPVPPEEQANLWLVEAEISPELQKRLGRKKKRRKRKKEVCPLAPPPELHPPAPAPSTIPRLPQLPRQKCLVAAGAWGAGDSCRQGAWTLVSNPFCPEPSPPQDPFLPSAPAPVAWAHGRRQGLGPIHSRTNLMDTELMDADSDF
Chain of UniProt P51671 (whole entry, looked up): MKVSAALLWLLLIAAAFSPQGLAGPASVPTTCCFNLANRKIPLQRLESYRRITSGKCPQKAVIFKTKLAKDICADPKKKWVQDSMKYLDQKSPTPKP
Chain of UniProt Q9Y478 (whole entry, unmodified, looked up): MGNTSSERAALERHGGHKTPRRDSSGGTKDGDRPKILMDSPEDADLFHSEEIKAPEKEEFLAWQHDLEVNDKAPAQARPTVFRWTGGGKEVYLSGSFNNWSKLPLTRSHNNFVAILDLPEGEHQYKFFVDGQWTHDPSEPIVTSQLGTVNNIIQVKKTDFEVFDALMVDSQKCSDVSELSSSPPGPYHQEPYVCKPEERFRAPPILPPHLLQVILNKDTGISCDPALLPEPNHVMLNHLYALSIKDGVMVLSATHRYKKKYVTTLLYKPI

SMILES	target	test	test system	setting	Kd
Cc1cc(C#CC2(O)CCCCC2)cc2c1cc(C(=O)O)n2-c1cccc(Cl)c1	Microphthalmia-associated transcription factor (Homo sapiens, UniProt O75030)	binding, ITC	–	–	390 nM
Cc1cc2nc(NC(=O)C3CC3)sc2cc1Oc1ccc(F)c(NC(=O)Cc2cccc(C(F)(F)F)c2)c1	RIPK1	binding, competition with immobilised ligand	–	–	140 nM
C[C@H](NC(=O)[C@H](C)NC(=O)[C@H](Cc1ccc(O)cc1)NS(=O)(=O)c1cccc2c(N(C)C)cccc12)C(=O)N[C@@H](CCC(N)=O)C(=O)N[C@@H](CCCCN)C(=O)N[C@@H](Cc1c[nH]cn1)C(=O)N[C@@H](Cc1ccccc1)C(=O)N[C@@H](Cc1c[nH]cn1)C(=O)O	Rho guanine nucleotide exchange factor TIAM2, PDZ domain (Tiam2, Mus musculus, UniProt Q6ZPF3)	fluorescence anisotropy	–	25 °C, added: dansylated peptide 1 µM	> 250000 nM
O=c1[nH]cnc2c(CN3C[C@H](O)[C@@H](O)C3)c[nH]c12	PNP (Homo sapiens, UniProt P00491)	enzyme activity, inhibitor	–	pH 7.4, 25 °C, first subunit slow-onset, added: 50 mM phosphate	53 ± 2 nM
CCCCCCCCO[C@@H]1O[C@H](CO)[C@H](O)[C@H](O[C@H]2O[C@H](CO)[C@H](O)[C@H](O)[C@H]2O)[C@H]1O[C@@H]1O[C@@H](C)[C@@H](O)[C@@H](O)[C@@H]1O	ABO G235S/G268A/L266M/R176G	methyl-TROSY NMR titration lineshape analysis	–	apo enzyme	264000 ± 4000 nM
COc1ccc(SC2=CC(=O)C(=O)c3c(-c4c(C)cccc4C)cn(S(=O)(=O)c4ccccc4)c32)cc1	ELAV-like protein 1 (ELAVL1, Homo sapiens, UniProt Q15717)	binding, SPR	–	–	8590 nM
N=C(N)NCCC[C@H](NC(=O)[C@H](CS)NC(=O)[C@H](Cc1ccc(O)cc1)NC(=O)[C@H](Cc1c[nH]c2ccccc12)NC(=O)[C@H](CCCNC(=N)N)NC(=O)[C@H](Cc1c[nH]c2ccccc12)NC(=O)[C@H](Cc1c[nH]cn1)NC(=O)CNC(=O)CN)C(=O)NCC(=O)NCC(=O)N[C@@H](CCCCN)C(N)=O	HIV RRE IB RNA	fluorescein-labelled RNA titration	–	1 mM TCEP	7000 ± 600 nM
CC(C)C[C@@H](N)C(=O)N[C@H](CC(=O)O)C(=O)N[C@@H](C(=O)N[C@H](Cc1ccccc1)C(=O)N[C@H](CC(C)C)C(=O)N[C@H](Cc1ccc(O)cc1)C(=O)N[C@H](CO)C(=O)N[C@H](CCC(=O)O)C(=O)O)C(C)C	CD274 (Homo sapiens, UniProt Q9NZQ7)	binding, MST	–	–	7530 nM
CN(C)c1cc2ccccc2c(N)n1	CUGBP Elav-like family member 1, RRM1/2 domains (CELF1, Homo sapiens, UniProt Q92879, S147A)	isothermal titration calorimetry	–	25 °C	9200 ± 1600 nM
COc1cc2c(c(OC)c1OC)-c1c(cc3c(c1OC)OCO3)CC(C)C(C)(O)C2OC(=O)c1ccccc1 (centres unmarked)	TAS1R2 (Homo sapiens, UniProt Q8TE23)	binding	0.5% DMSO	–	0.385 nM
CC(=O)N[C@H]1[C@H](O[C@H]2[C@H](OS(=O)(=O)O)[C@@H](OS(=O)(=O)O)[C@H](O[C@H]3[C@H](OS(=O)(=O)O)[C@@H](COS(=O)(=O)O)OC[C@@H]3NC(C)=O)O[C@@H]2C(=O)O)O[C@H](COS(=O)(=O)O)[C@@H](OS(=O)(=O)O)[C@@H]1O[C@@H]1O[C@H](C(=O)O)[C@@H](OS(=O)(=O)O)[C@H](OS(=O)(=O)O)[C@H]1OS(=O)(=O)O	Bone morphogenetic protein 2 (Homo sapiens, UniProt P12643)	ligand displacement, FP	–	–	3400 nM
C=CCCCCCCO[C@@H]1O[C@H](CO)[C@@H](O)[C@H](O[C@@H]2O[C@H](CO)[C@H](O)[C@H](O)[C@H]2O[C@@H]2O[C@@H](C)[C@@H](O)[C@@H](O)[C@@H]2O)[C@H]1NC(C)=O	ABO G235S/G268A/L266M/R176G	methyl-TROSY NMR titration lineshape	–	two-state binding model, added: acceptor binding, saturating UDP	44000 ± 2000 nM
CC(=O)N[C@@H]1[C@@H](O[C@@H]2O[C@H](C(=O)O)[C@@H](O[C@@H]3O[C@H](COS(=O)(=O)O)[C@@H](OS(=O)(=O)O)[C@H](O[C@@H]4O[C@H](C(=O)O)[C@@H](OS(=O)(=O)O)[C@H](OS(=O)(=O)O)[C@H]4OS(=O)(=O)O)[C@H]3NC(C)=O)[C@H](OS(=O)(=O)O)[C@H]2OS(=O)(=O)O)[C@H](OS(=O)(=O)O)[C@@H](COS(=O)(=O)O)O[C@H]1N=[N+]=[N-]	Fibroblast growth factor 2 (Homo sapiens, UniProt P09038)	ligand displacement, FP	–	–	294 nM
Cc1ccc(Oc2nc3cc(-c4ccc5c(ccn5C)c4)c(Cl)cc3[nH]2)cc1C(=O)O	PRKAA1/PRKAB1, phosphorylated; with gamma1 (Homo sapiens, UniProt Q13131+Q9Y478, K40A/K42A)	biolayer interferometry	–	AMPK complex α1(K31A/K33A)β1γ1	2050 nM
C[n+]1ccc(/C=N/NC(=O)c2cccc(C(=O)N/N=C/c3cc[n+](C)c4ccccc34)n2)c2ccccc21	telomeric antiparallel G4 DNA	binding, native ESI-MS	100 mM trimethylammonium acetate	1 mM KCl	< 1 nM
CC(C)C[C@H](NC(=O)[C@H](CC(C)C)NC(=O)CNC(=O)[C@@H](NC(=O)[C@H](CC(=O)O)NC(=O)[C@H](CC(=O)O)NC(=O)[C@H](Cc1ccc(OS(=O)(=O)O)cc1)NC(=O)[C@H](Cc1ccc(O)cc1)NC(=O)[C@H](CO)NC(=O)[C@@H](NC(=O)[C@@H](NC(=O)CNC(=O)[C@H](Cc1ccccc1)NC(=O)[C@@H](NC(=O)[C@H](CCC(=O)O)NC(=O)[C@@H](N)C(C)C)[C@@H](C)O)[C@@H](C)O)[C@@H](C)O)C(C)C)C(=O)O	Eotaxin (CCL11, Homo sapiens, UniProt P51671)	binding, NMR	–	pH 6.5	22000 nM
CS[C@@H]1O[C@H](COS(=O)(=O)O)[C@@H](OS(=O)(=O)O)[C@H](O[C@@H]2O[C@H](C(=O)O)[C@@H](O[C@@H]3O[C@H](COS(=O)(=O)O)[C@@H](OS(=O)(=O)O)[C@H](O[C@@H]4O[C@H](C(=O)O)[C@@H](OS(=O)(=O)O)[C@H](OS(=O)(=O)O)[C@H]4OS(=O)(=O)O)[C@H]3NC(C)=O)[C@H](OS(=O)(=O)O)[C@H]2OS(=O)(=O)O)[C@H]1NC(C)=O	Metalloproteinase inhibitor 3 (Homo sapiens, UniProt P35625)	ligand displacement, FP	–	–	860 nM
C=CCCCCCCO[C@@H]1O[C@H](CO)[C@@H](O[C@@H]2O[C@H](CO)[C@H](O)[C@H](O)[C@H]2O[C@@H]2O[C@@H](C)[C@@H](O)[C@@H](O)[C@@H]2O)[C@H](O)[C@H]1O	ABO G235S/G268A/L266M/R176G	methyl-TROSY NMR titration lineshape analysis	–	apo enzyme	318000 ± 5000 nM
CCCn1c(=O)c2[nH]c(-c3ccc(OCC(=O)NCCNC(=O)CCCCCNC(=O)COc4ccc(/C=C/C5=[N+]6C(=Cc7ccc(-c8cccs8)n7[B-]6(F)F)C=C5)cc4)cc3)nc2n(CCC)c1=O	ADORA1	CRE reporter gene, antagonist, parallel shift	CHO-A1	Gi-mediated inhibition, added: NECA and forskolin	120 nM
O=C(Cc1cccc(C(F)(F)F)c1)Nc1cc(Oc2c(Br)cc3nc(NC(=O)C4CC4)sc3c2Br)ccc1F	RIPK1	binding, competition with immobilised ligand	–	–	270 nM
Cc1cc(N2CCC(CO)(C3CC3)C2=O)cc(C(=O)NCc2cc(F)cc(-c3cnn(C)c3)c2)n1 (centres unmarked)	EPRS1 (Homo sapiens, UniProt P07814)	binding, MST	–	–	~2290 nM and 2290 nM
COc1cc(-c2nc3ccc(C(=O)NCCCN4CCN(c5cccc(C)c5C)CC4)cc3n2C2CCC2)cc(OC)c1OC	BMPR1A (Homo sapiens, UniProt P36894)	binding, TR-FRET	–	–	113 nM
CCc1nc2cc3ccccc3cc2cc1C(=O)N1CCC[C@H]1C(=O)N[C@@H](CCC/C=C/CCC[C@H](NC(=O)[C@@H]1CCCN1C(=O)c1cc2cc3ccccc3cc2nc1CC)C(=O)N[C@@H](CCCCN)C(=O)NCCCN)C(=O)N[C@@H](CCCCN)C(=O)NCCCN	(CCUG)10 RNA	fluorescence titration	–	–	73.6 ± 0.8 nM
CC(C)C[C@H](NC(=O)[C@H](CC(C)C)NC(=O)[C@H](CCCNC(=N)N)NC(=O)[C@@H](N)CC(N)=O)C(=O)N[C@@H](CC(C)C)C(=O)N[C@H](C(=O)NCC(=O)O)[C@@H](C)O	Heat shock 70 kDa protein 1A, ADP-bound (HSPA1A, Homo sapiens, UniProt P0DMV8)	binding, isothermal titration calorimetry	–	pH 5.5, 25 °C, full-length ADP-bound, 3% DMSO	~10000 nM
CCCn1c(=O)c2[nH]c(-c3ccc(OCC(=O)NCCNC(=O)CCCCCNS(=O)(=O)c4ccc(C5=c6cc7c8c(c6Oc6c5cc5c9c6CCCN9CCC5)CCC[N+]=8CCC7)c(S(=O)(=O)[O-])c4)cc3)nc2n(CCC)c1=O	ADORA1	CRE reporter gene, antagonist, parallel shift	CHO-A1	Gi-mediated inhibition, added: NECA and forskolin	1000 nM
O=C(CCCCCCNc1ccc(C(=O)Nc2ccc(Cl)c(NC(=O)c3cccc(Cl)c3)c2)cn1)NO	Protein smoothened (SMO, Homo sapiens, UniProt Q99835)	cell-free assay, flow cytometry	–	–	79.6 nM
